Published values from different studies.
Protocols differ between the studies behind these lines. Numbers after ± are the reported error.

| SMILES | test | system | conditions | scale | quantity | value |
| --- | --- | --- | --- | --- | --- | --- |
| Clc1ccc(NN=C(c2ccccc2)c2ccccn2)nc1 | – | nude mouse, A549 xenograft | oral gavage, 55 mg/kg | reference: vehicle | tumour weight | decreased |
| COc1ccc(-c2oc3ccccc3c(=O)c2OCc2ccccc2)cc1 | – | diabetic rat | 5 mg/kg, p-nitrophenyl β-glucoside induced | – | serum alanine aminotransferase | 38.7 ± 2.61 IU |
| Cc1cccc(Cn2ncc3c4cc(F)c(CN(C)C)cc4n(C)c3c2=O)n1 | – | rd10 mouse, retina | intraperitoneal, 50 mg/kg at P14, P21 | – | CD11b+/Iba1+ mononuclear phagocytes | decreased |
| CCCCCCCOC(=O)Cc1c(C)n(C(=O)c2ccc(Cl)cc2)c2ccc(OC)cc12 | – | BALB/c mice, acetic acid writhing | intraperitoneal, 10 mg/kg, 20 min count | – | writhing count | 20.2 ± 1.49 |
| CC(C)c1cnc(-c2cc(Cl)ccc2F)cc1Nc1ccncc1C(=O)NC(CO)CO | refers to: pSMAD2 | 4T1 tumour-bearing mouse, tumour | 10 mg/kg twice daily | reference: vehicle | maximum inhibition | 36% |
| CCC1CC2C(C)=CC3C(=O)CCCC3C=CC(C)=CC2C(=O)O1 (stereo not drawn) | thioflavin S staining | 5XFAD transgenic mouse, hippocampus | oral gavage, 30 mg/kg/day, 5 days | reference: untreated | Aβ plaque number reduction | 18.9% |
| Cc1cc2c(cc1C1(c3ncc(C(=O)O)cn3)CC1)C(C)(C)CCC2(C)C | RNA sequencing, refers to: Sycp2 | rat, brain | dose not given, 24 h | reference: vehicle | log2 fold change | 0.69 |
| O=c1c(OCc2ccccc2)c(-c2cccc([N+](=O)[O-])c2)oc2ccccc12 | – | diabetic rat | 5 mg/kg, 28 days, p-nitrophenyl β-glucoside induced | – | serum HDL cholesterol | 43.7 ± 1.98 mg/dL |
| Cc1ncc([N+](=O)[O-])n1CCOCc1nnc(SCC(=O)c2ccc(Br)cc2)o1 | – | – | 75 µg/mL, 45 min | – | DPPH scavenging | 40.57 ± 0.32% |
| CN1CCC[C@]1(C)/C=C/S(=O)(=O)NC(=O)Nc1c2c(cc3c1CCC3)CCC2 | IL-18 release | human, whole blood ex vivo | oral, 50 mg, 36 h after last dose, multiple ascending dose, with: LPS and ATP | – | inhibition | ~90% |
| CCCCCCOC(=O)Cc1c(C)n(C(=O)c2ccc(Cl)cc2)c2ccc(OC)cc12 | hot plate test | BALB/c mice | 75 mg/kg, 120 min | – | latency of nociceptive response | 16.3 ± 1.01 s |
| CC(C)(O)c1ccc(N2Cc3c(ccnc3-c3ccc(F)cc3OCC(F)(F)F)C2=O)cc1 | – | Gaucher disease mouse model, brain | 30 mg/kg, single dose | reference: vehicle | glucosylsphingosine level | 80 ± 2% |
| CC(=O)N[C@@H](C)C(=O)N[C@@H](CO)C(=O)NC(C)(C)C(=O)N[C@@H](CC(C)C)C(=O)N[C@@H](CCCNC(=N)N)C(=O)N[C@@H](CCCCN)C(=O)N[C@@H](CC(C)C)C(=O)NC(C)(C)C(=O)N[C@@H](CCCCN)C(=O)N[C@@H](CCCNC(=N)N)C(=O)N[C@@H](CC(C)C)C(=O)N[C@@H](CC(C)C)C(N)=O | – | male Long-Evans rat, fluid percussion injury | 1.0 mg/kg, 5 doses, post-injury day 11, retrograde amnesia task | reference: sham | memory retention | no effect |
| COc1c2c(cc3oc(CO)cc(=O)c13)O[C@H](C(C)(C)O)C2 | – | mouse, xylene ear edema | oral, 4 mg/kg | – | ear edema weight increase | 2.16 ± 0.36 mg |
| COc1ccc(C2CC(c3ccc(C)cc3)=Nc3ccccc3S2)cc1 (stereo not drawn) | – | rat, normal, overnight fasted | oral, 10 mg/kg, 120 min, oral glucose tolerance test, with: glucose 3 g/kg oral | – | blood glucose | 112 ± 4.45 mg/dL |
| Cc1ccc(C(=O)Nc2cccc(C(F)(F)F)c2)cc1Nc1nc(-c2cccnc2)nc2c1cnn2C | VEGF-induced vascularization | mouse, VEGF agar chamber implant | oral, 3 mg/kg daily, 4 days, with: VEGF 2 µg | – | angiogenesis | inhibited |
| CCCOC(=O)Cc1c(C)n(C(=O)c2ccc(Cl)cc2)c2ccc(OC)cc12 | hot plate test | BALB/c mice | 50 mg/kg, 60 min | – | latency of nociceptive response | 15.7 ± 0.7 s |

| SMILES | test | system | conditions | scale | quantity | value |
| --- | --- | --- | --- | --- | --- | --- |
| C=CC(=O)N1C[C@H](C)N(c2nc(OC[C@@]34CCCN3C[C@H](F)C4)nc3c(F)c(-c4ccc(F)c5sc(N)c(C#N)c45)c(C(F)(F)F)cc23)C[C@H]1C | – | NCI-H358 xenograft, mouse | oral, 3 mg/kg once daily, 28 days | – | tumour regression | 19% |
| CCc1nc(-c2ccc(-c3ccc(CCC(N)(CO)CO)cc3)cc2)co1 | – | Sprague-Dawley rat, peripheral blood lymphocytes | oral, 0.3 mg/kg, single dose | – | maximal inhibition of PBLs | 25% |
| O=c1c(OCc2ccccc2)c(-c2ccc([N+](=O)[O-])cc2)oc2ccccc12 | – | diabetic rat | 5 mg/kg, p-nitrophenyl β-glucoside induced | – | serum alanine aminotransferase | 46 ± 3.04 IU |
| CCOP(=O)(CC(=O)Nc1ccc(S(=O)(=O)N(CC(N)=O)c2ccc(N(CC(N)=O)S(=O)(=O)c3ccc(OC)cc3)c3ccccc23)cc1)OCC | Morris water maze probe trial | APP/PS1 mice | intragastric, 40 mg/kg, 60 days, lentivirus intracerebroventricular | reference: untreated APP/PS1 | platform crossings | increased |
| COc1ccc2c(c1)c(CC(=O)OCC(=O)c1ccccc1)c(C)n2C(=O)c1ccc(Cl)cc1 | acetic acid writhing test | BALB/c mouse | intraperitoneal, 20 mg/kg | reference: negative control | analgesia | 71.1% |
| Cc1ccc(-c2oc3ccccc3c(=O)c2OCc2ccccc2)cc1 | – | diabetic rat | 5 mg/kg, p-nitrophenyl β-glucoside induced | – | serum alkaline phosphatase | 199 ± 4.11 IU |
| CCOC(=O)c1cc2c(N)c(C(=O)OC)sc2nc1C | refers to: urine output, osmolality, urea | Sprague-Dawley rats | subcutaneous, dose not given | – | time to return to baseline | 12 h |
| C[C@H](NC(=O)COC(=O)[C@H](C)NC(=O)CO)C(=O)O | – | water | pH 3, 50 °C | – | depolymerization rate constant | 0.013 h⁻¹ |
| CCCC[C@H](NC(=O)[C@@H](NC(=O)[C@H](CC(=O)O)NC(=O)[C@H](CCC(N)=O)NC(=O)[C@H](CC(C)C)NC(=O)[C@H](CC(C)C)NC(=O)[C@H](CCCN)NC(=O)[C@H](CCCNC(=N)N)NC(=O)[C@H](C)NC(=O)[C@H](CO)NC(=O)[C@H](CC(C)C)NC(=O)[C@H](CCC(N)=O)NC(=O)[C@H](CC)NC(=O)[C@H](CC(C)C)NC(=O)[C@@H](NC(=O)[C@H](CCCN)NC(=O)[C@H](CCCNC(=N)N)NC(=O)[C@H](Cc1ccc(O)cc1)NC(=O)[C@H](CO)NC(=O)[C@H](CCC(N)=O)NC(=O)[C@@H](NC(=O)[C@H](Cc1ccccc1)NC(=O)[C@@H](NC(=O)[C@H](C)NC(=O)[C@H](CC(=O)O)NC(=O)[C@@H](C)NC(=O)[C@H](Cc1ccc(O)cc1)NC)[C@@H](C)CC)[C@@H](C)O)C(C)C)[C@@H](C)CC)C(=O)N[C@@H](CC(=O)O)C(=O)N[C@@H](CCCNC(=N)N)C(=O)NCC | GH release, ELISA | male Sprague-Dawley rat, anaesthetised, serum | subcutaneous, 3 µg/kg, 0 min | – | serum GH level | 35.5 ± 7.6 ng/mL |
| CC[C@H]1[C@@H](O)[C@@H]2[C@H](CC[C@]3(C)[C@@H]([C@H](C)CCOS(=O)(=O)[O-])CC[C@@H]23)[C@@]2(C)CC[C@@H](O)C[C@@H]12.[Na+] | – | ob/ob NASH mouse model | oral, 3 mg/kg once daily, week 4 | – | fasting blood glucose | 8.2 ± 0.2 mmol/L |
| CCCC[C@H](NC(=O)[C@@H](NC(=O)[C@H](CC(=O)O)NC(=O)[C@H](CCC(N)=O)NC(=O)[C@H](CC(C)C)NC(=O)[C@H](CC(C)C)NC(=O)[C@H](CCCN)NC(=O)[C@H](CCCNC(=N)N)NC(=O)[C@H](C)NC(=O)[C@H](CO)NC(=O)[C@H](CC(C)C)NC(=O)[C@H](CCC(N)=O)NC(=O)[C@H](CC)NC(=O)[C@H](CC(C)C)NC(=O)[C@@H](NC(=O)[C@H](CCCN)NC(=O)[C@H](CCCNC(=N)N)NC(=O)[C@H](Cc1ccc(O)cc1)NC(=O)[C@H](CO)NC(=O)[C@H](CCC(N)=O)NC(=O)[C@@H](NC(=O)[C@H](Cc1ccccc1)NC(=O)[C@@H](NC(=O)[C@H](C)NC(=O)[C@H](CC(=O)O)NC(=O)[C@@H](C)NC(=O)[C@H](Cc1ccc(O)cc1)NC)[C@@H](C)CC)[C@@H](C)O)C(C)C)[C@@H](C)CC)C(=O)N[C@@H](CC(=O)O)C(=O)NCCCCNC(=N)N | GH release, ELISA | male Sprague-Dawley rat, anaesthetised, serum | subcutaneous, 3 µg/kg, 0 min | – | serum GH level | 46.1 ± 6.3 ng/mL |
| CCNC(=O)[C@@H]1CCCN1C(=O)[C@H](CCCNC(=N)N)NC(=O)[C@H](CC(C)C)NC(=O)[C@@H](CC(C)C)NC(=O)[C@H](Cc1ccc(O)cc1)NC(=O)[C@H](CO)NC(=O)[C@H](Cc1c[nH]c2ccccc12)NC(=O)[C@H](Cc1c[nH]cn1)NC(=O)[C@@H]1CCC(=O)N1 | – | Sprague-Dawley rat, serum | subcutaneous, 100 µg/kg/day, 35 days | – | duration of testosterone suppression | 35 days |
| CCCC[C@H](NC(=O)[C@@H](NC(=O)[C@H](CC(=O)O)NC(=O)[C@H](CCC(N)=O)NC(=O)[C@H](CC(C)C)NC(=O)[C@H](CC(C)C)NC(=O)[C@H](CCCN)NC(=O)[C@H](CCCNC(=N)N)NC(=O)[C@H](C)NC(=O)[C@H](CO)NC(=O)[C@H](CC(C)C)NC(=O)[C@H](CCC(N)=O)NC(=O)[C@H](CC)NC(=O)[C@H](CC(C)C)NC(=O)[C@@H](NC(=O)[C@H](CCCN)NC(=O)[C@H](CCCNC(=N)N)NC(=O)[C@H](Cc1ccc(O)cc1)NC(=O)[C@H](CO)NC(=O)[C@H](CC(N)=O)NC(=O)[C@@H](NC(=O)[C@H](Cc1c(F)c(F)c(F)c(F)c1F)NC(=O)[C@@H](NC(=O)[C@H](C)NC(=O)[C@H](CC(=O)O)NC(=O)[C@@H](C)NC(=O)CCc1ccc(O)cc1)[C@@H](C)CC)[C@@H](C)O)C(C)C)[C@@H](C)CC)C(=O)N[C@@H](CO)C(=O)N[C@@H](CCCNC(=N)N)C(=O)NCCCC(N)=O | GH release, ELISA | male rat, anaesthetised, serum | intravenous, 1 µg/kg, 5 min | – | serum GH level | 1250 ± 185 ng/mL |
| O=[N][Fe]1([N]=O)[S](CCO)[Fe]([N]=O)([N]=O)[S]1CCO | western blot, refers to: Iba1 | aged C57BL/6JNarl mice on Western diet, hippocampus | dose not given | reference: Western diet alone | protein level | no effect |
| CCCC[C@H](NC(=O)[C@@H](NC(=O)[C@H](CC(=O)O)NC(=O)[C@H](CCC(N)=O)NC(=O)[C@H](CC(C)C)NC(=O)[C@H](CC(C)C)NC(=O)[C@H](CCCN)NC(=O)[C@H](CCCNC(=N)N)NC(=O)[C@H](C)NC(=O)[C@H](CO)NC(=O)[C@H](CC(C)C)NC(=O)[C@H](CCC(N)=O)NC(=O)[C@H](CC)NC(=O)[C@H](CC(C)C)NC(=O)[C@@H](NC(=O)[C@H](CCCN)NC(=O)[C@H](CCCNC(=N)N)NC(=O)[C@H](Cc1ccc(O)cc1)NC(=O)[C@H](CO)NC(=O)[C@H](CCC(N)=O)NC(=O)[C@@H](NC(=O)[C@H](Cc1ccccc1)NC(=O)[C@@H](NC(=O)[C@H](C)NC(=O)[C@H](CC(=O)O)NC(=O)[C@H](C)NC(=O)CCc1ccc(O)cc1)[C@@H](C)CC)[C@@H](C)O)C(C)C)[C@@H](C)CC)C(=O)N[C@@H](CC(=O)O)C(=O)N[C@@H](CCCNC(=N)N)C(=O)NCCCCC(N)=O | GH release, ELISA | male Sprague-Dawley rat, anaesthetised, serum | subcutaneous, 3 µg/kg, 30 min | – | serum GH level | 138 ± 27.9 ng/mL |
| CCCCOc1nc(N)c2[nH]c(=O)n(CCCN(CCCN3CCOCC3)Cc3cccc(CC(=O)OC)c3)c2n1 | – | rat, Brown Norway, ovalbumin-sensitised | single dose | – | duration of effect | ≤ 5 days |

For quick reference, copied from above:
| SMILES | test | system | conditions | scale | quantity | value |
| --- | --- | --- | --- | --- | --- | --- |
| CN1CCC[C@]1(C)/C=C/S(=O)(=O)NC(=O)Nc1c2c(cc3c1CCC3)CCC2 | IL-18 release | human, whole blood ex vivo | oral, 50 mg, 36 h after last dose, multiple ascending dose, with: LPS and ATP | – | inhibition | ~90% |
| CCCCCCOC(=O)Cc1c(C)n(C(=O)c2ccc(Cl)cc2)c2ccc(OC)cc12 | hot plate test | BALB/c mice | 75 mg/kg, 120 min | – | latency of nociceptive response | 16.3 ± 1.01 s |
